Experimental data gathered from unrelated publications.
± marks the error that the study gave.
DRD3: D(3) dopamine receptor (DRD3, Homo sapiens, UniProt P35462)
UniProt P35462, sequence (whole entry, looked up): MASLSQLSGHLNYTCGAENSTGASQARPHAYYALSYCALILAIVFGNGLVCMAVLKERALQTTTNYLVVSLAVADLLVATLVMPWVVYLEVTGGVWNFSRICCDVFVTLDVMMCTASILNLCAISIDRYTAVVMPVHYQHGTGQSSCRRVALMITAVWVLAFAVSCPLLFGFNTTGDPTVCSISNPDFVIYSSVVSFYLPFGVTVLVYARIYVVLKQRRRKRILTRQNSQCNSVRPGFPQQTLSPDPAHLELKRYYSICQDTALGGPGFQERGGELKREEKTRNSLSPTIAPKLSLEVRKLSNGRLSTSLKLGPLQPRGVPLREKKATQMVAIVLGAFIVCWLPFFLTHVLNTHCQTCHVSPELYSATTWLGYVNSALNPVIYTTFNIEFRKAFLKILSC
RXFP3: Relaxin-3 receptor 1 (RXFP3, Homo sapiens, UniProt Q9NSD7)
UniProt Q9NSD7, sequence (whole entry, looked up): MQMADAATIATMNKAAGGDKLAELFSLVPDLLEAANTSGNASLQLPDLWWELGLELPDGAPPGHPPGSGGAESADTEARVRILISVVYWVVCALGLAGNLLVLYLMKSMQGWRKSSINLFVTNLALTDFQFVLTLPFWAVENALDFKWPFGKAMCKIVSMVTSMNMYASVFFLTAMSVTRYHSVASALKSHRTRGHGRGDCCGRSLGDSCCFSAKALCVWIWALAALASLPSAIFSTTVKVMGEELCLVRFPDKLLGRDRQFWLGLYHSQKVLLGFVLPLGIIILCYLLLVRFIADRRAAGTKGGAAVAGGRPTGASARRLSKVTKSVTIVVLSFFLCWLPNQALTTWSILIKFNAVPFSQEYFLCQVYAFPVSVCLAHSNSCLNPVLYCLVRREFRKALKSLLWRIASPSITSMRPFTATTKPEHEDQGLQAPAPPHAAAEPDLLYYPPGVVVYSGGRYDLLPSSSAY
Oprd1: Delta-type opioid receptor (Oprd1, Rattus norvegicus, UniProt P33533)
UniProt P33533, sequence (whole entry, looked up): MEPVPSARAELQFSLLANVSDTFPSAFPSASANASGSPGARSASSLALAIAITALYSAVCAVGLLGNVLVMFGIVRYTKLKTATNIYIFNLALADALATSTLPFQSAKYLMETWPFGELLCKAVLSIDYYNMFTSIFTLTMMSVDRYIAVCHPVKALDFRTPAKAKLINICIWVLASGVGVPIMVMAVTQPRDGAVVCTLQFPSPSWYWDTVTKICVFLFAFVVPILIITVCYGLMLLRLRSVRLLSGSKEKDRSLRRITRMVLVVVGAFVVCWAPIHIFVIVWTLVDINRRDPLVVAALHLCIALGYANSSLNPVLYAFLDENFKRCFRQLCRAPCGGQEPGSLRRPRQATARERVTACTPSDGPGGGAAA
Accessory gene regulator protein C: Accessory gene regulator protein C (Staphylococcus epidermidis, UniProt Q8VSX2)
UniProt P48546, sequence (whole entry, looked up): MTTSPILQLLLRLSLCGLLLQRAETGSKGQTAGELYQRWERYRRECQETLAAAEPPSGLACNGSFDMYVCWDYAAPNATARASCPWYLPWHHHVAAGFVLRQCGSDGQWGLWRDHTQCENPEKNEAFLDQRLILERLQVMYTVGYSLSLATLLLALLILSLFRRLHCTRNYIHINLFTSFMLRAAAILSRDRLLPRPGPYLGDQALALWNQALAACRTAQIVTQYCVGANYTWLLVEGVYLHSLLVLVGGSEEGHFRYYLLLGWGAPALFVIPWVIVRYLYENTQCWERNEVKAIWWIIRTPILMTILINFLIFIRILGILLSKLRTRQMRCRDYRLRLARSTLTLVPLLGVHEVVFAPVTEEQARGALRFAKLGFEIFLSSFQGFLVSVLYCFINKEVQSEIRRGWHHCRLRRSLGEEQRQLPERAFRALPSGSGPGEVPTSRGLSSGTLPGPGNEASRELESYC
UniProt P08482, sequence (whole entry, looked up): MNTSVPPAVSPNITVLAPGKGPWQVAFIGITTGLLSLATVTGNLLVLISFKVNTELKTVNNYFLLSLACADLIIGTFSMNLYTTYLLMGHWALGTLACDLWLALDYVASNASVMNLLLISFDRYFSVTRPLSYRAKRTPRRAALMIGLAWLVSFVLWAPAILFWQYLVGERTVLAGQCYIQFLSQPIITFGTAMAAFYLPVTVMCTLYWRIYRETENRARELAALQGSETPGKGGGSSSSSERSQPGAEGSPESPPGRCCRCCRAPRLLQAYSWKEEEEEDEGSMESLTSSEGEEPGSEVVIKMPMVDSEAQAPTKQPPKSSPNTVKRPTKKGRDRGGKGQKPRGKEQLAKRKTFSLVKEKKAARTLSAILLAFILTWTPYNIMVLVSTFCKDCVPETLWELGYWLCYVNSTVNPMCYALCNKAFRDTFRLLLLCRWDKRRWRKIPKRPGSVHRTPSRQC
UniProt P06401, sequence (whole entry, looked up): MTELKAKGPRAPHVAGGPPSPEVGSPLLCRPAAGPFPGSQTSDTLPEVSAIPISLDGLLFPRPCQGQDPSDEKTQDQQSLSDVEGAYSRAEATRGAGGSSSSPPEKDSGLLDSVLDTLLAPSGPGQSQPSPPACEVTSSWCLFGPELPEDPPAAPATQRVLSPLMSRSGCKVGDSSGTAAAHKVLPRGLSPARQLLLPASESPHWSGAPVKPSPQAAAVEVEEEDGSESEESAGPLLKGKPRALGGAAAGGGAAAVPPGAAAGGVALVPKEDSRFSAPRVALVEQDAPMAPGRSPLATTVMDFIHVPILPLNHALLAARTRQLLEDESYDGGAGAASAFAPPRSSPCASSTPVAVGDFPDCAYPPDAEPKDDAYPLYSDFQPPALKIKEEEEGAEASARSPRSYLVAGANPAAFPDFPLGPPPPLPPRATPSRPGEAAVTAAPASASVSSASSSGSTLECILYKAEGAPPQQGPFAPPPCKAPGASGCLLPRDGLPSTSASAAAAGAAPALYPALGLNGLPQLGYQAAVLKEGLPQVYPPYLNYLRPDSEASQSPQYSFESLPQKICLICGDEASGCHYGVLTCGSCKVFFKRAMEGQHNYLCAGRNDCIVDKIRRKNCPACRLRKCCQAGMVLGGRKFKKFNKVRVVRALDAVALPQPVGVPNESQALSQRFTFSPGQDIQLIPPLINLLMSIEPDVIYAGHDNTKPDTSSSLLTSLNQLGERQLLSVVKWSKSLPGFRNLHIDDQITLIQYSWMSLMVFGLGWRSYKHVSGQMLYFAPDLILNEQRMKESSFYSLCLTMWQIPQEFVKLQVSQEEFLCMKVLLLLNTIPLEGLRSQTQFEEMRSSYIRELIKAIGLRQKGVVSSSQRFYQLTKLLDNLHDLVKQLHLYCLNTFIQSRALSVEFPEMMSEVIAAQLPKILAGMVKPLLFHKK
UniProt P43220, sequence (whole entry, looked up): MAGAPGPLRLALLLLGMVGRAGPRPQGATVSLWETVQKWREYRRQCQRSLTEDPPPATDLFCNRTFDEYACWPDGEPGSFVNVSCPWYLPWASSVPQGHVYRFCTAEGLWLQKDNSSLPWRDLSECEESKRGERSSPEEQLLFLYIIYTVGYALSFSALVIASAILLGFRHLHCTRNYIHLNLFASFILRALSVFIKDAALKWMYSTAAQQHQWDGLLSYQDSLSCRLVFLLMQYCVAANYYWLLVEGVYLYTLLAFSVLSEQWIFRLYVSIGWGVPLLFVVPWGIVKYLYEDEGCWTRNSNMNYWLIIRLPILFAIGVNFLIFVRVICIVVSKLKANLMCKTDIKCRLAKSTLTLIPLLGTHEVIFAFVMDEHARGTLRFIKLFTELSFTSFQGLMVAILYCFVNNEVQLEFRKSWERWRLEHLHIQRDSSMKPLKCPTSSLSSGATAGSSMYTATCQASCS
UniProt P10826, sequence (whole entry, looked up): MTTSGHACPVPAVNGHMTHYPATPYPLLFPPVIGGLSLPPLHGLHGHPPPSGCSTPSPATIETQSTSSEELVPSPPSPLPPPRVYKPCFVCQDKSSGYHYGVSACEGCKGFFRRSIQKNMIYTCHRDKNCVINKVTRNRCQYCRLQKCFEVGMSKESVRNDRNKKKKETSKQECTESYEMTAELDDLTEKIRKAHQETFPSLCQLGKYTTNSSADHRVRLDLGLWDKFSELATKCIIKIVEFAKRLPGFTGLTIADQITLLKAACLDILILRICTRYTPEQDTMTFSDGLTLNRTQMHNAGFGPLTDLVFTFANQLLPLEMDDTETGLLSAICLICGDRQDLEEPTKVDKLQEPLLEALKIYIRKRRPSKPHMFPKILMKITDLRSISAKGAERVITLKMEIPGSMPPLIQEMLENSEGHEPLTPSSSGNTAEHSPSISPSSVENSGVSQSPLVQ
UniProt P56450, sequence (whole entry, unmodified, looked up): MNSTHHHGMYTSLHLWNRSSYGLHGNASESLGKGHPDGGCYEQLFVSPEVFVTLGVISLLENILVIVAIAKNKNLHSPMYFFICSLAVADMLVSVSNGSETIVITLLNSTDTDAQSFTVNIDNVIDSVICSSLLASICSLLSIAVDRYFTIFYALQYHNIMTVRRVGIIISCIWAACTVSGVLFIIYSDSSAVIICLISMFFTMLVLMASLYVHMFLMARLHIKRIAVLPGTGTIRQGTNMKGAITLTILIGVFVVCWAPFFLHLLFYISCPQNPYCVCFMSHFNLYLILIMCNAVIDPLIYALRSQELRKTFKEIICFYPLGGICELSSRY
UniProt Q96NY8, sequence (whole entry, looked up): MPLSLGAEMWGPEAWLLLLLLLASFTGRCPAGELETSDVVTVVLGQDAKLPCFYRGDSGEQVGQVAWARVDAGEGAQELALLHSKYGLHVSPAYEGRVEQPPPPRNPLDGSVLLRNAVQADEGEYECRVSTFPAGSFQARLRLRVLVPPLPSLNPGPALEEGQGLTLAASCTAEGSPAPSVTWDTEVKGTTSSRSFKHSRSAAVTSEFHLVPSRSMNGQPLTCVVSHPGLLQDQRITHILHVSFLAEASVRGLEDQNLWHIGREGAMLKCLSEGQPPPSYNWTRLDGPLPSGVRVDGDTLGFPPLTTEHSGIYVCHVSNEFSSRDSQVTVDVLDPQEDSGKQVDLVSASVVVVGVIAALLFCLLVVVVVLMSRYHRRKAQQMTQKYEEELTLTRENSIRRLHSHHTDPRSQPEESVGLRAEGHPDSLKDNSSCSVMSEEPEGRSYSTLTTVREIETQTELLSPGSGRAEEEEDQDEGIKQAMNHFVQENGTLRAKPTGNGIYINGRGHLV

With `CC(N)CCc1ccccc1Cl` (racemic) the EC50 was 14400 nM (DRD3; β-arrestin recruitment, agonist).
`CC[C@H](C)[C@@H]1NC(=O)[C@H](C(C)C)NC(=O)[C@H](C)NC(=O)[C@H](CCCNC(=N)N)NC(=O)[C@H]([C@@H](C)CC)NC(=O)[C@](C)(NC(=O)[C@H](CCC(=O)O)NC(=O)[C@H](CCCNC(=N)N)NC(=O)CNC(=O)[C@H](CO)NC(=O)[C@H](CC(C)C)NC(=O)[C@H](CCCNC(=N)N)NC(=O)[C@@H](NC(=O)CNC(=O)[C@H](Cc2ccc(O)cc2)NC(=O)[C@@H]2CCCN2C(=O)[C@H](C)NC(=O)[C@H](C)NC(=O)[C@@H](N)CCCNC(=N)N)C(C)C)CCCC=CCCCCCC[C@@](C)(C(=O)N[C@@H](CO)C(=O)NCC(=O)NCC(=O)N[C@@H](CO)C(=O)N[C@@H](CCCNC(=N)N)C(=O)N[C@@H](Cc2c[nH]c3ccccc23)C(=O)O)NC(=O)[C@H](Cc2ccccc2)NC1=O` has an EC50 of 5.24 nM (RXFP3; cAMP, agonist).
For `CC(=O)OCCCCCn1c2ccccc2c2cc(C(=O)c3cccc4ccccc34)ccc21`, the EC50 was 195 nM (CNR1 (Homo sapiens, UniProt P21554); cAMP, agonist, BRET).
The EC50 of `C[C@@H]1NC(=O)[C@H](CC(N)=O)N2C[C@H](Cc3c[nH]c4ccccc34)NC(=O)[C@@H](CSCC2=O)NC(=O)[C@H](CCCNC(=N)N)NC(=O)[C@@H](Cc2ccccc2)NC(=O)[C@H](Cc2c[nH]cn2)NC(=O)[C@@H](NC(=O)[C@@H](N)Cc2ccc(O)cc2)CSSC[C@@H](C(=O)N[C@@H](Cc2ccc(O)cc2)C(N)=O)NC(=O)[C@H](Cc2ccccc2)NC1=O` is reported as 440 nM (Melanocortin receptor 4 (Mus musculus, UniProt P56450); reporter gene, agonist).
The EC50 of `CC[C@H](C)[C@H](NC(=O)[C@H](CO)NC(=O)[C@H](Cc1ccc(O)cc1)NC(=O)[C@H](CC(=O)O)NC(=O)[C@H](CO)NC(=O)[C@@H](NC(=O)[C@H](Cc1ccccc1)NC(=O)[C@@H](NC(=O)CNC(=O)[C@H](CCC(=O)O)NC(=O)C(C)(C)NC(=O)[C@@H](N)Cc1ccc(O)cc1)[C@@H](C)O)[C@@H](C)CC)C(=O)N[C@@H](C)C(=O)N[C@@H](CCSC)C(=O)N[C@@H](CC(=O)O)C(=O)N[C@@H](CCCCN)C(=O)N[C@H](C(=O)N[C@@H](CCCNC(=N)N)C(=O)N[C@@H](CCC(N)=O)C(=O)N[C@@H](CCC(N)=O)C(=O)N[C@@H](CC(=O)O)C(=O)N[C@@H](Cc1ccccc1)C(=O)N[C@H](C(=O)N[C@@H](CC(N)=O)C(=O)N[C@@H](Cc1c[nH]c2ccccc12)C(=O)N[C@@H](CC(C)C)C(=O)N[C@@H](CC(C)C)C(=O)N[C@@H](C)C(=O)N[C@@H](CCC(N)=O)C(=O)N[C@@H](CCCNC(=N)N)C(=O)NCC(=O)N[C@@H](CCCCN)C(=O)N[C@@H](CCCCN)C(=O)N[C@@H](CO)C(=O)N[C@@H](CC(=O)O)C(=O)N[C@@H](Cc1c[nH]c2ccccc12)C(=O)N[C@@H](CCCCN)C(=O)N[C@@H](Cc1c[nH]cn1)C(=O)N[C@@H](CC(N)=O)C(=O)N[C@H](C(=O)N[C@H](C(=O)N[C@@H](CCC(N)=O)C(=O)O)[C@@H](C)O)[C@@H](C)CC)C(C)C)[C@@H](C)CC` is reported as 0.0043 nM (GIPR (Homo sapiens, UniProt P48546); reporter gene, agonist, luciferase).
`Nc1ccn(C2CCC(OC(C(=O)O)P(=O)(O)O)C2)c(=O)n1` (racemic) gave an EC50 of 1400 ± 490 nM (Gag-Pol polyprotein, reverse transcriptase (gag-pol, Human immunodeficiency virus type 1 group M subtype B, UniProt P04585); post-translocation trapping, Fe2+ footprinting; 50% complexes post-translocated).
The EC50 of `CCCCc1cc(Cc2ccccc2)cc2c1NCCC2NC(=O)C(N)Cc1c(C)cc(O)cc1C` (stereo not shown) is reported as 250 nM (Oprd1; GTPγS binding, agonist, radiometric; cell membranes).
The EC50 of `CC(C)C[C@@H]1NC(=O)[C@H](Cc2ccc(O)cc2)NC(=O)[C@H](CCCNC(=N)N)NC(=O)[C@H](C(C)C)NC(=O)[C@@H]2CCCN2C(=O)[C@H](Cc2ccccc2)NC(=O)[C@H](C)NC(=O)[C@H](CC(N)=O)NC(=O)[C@H](Cc2ccc(OS(=O)(=O)F)cc2)NC(=O)[C@@H](Cc2ccccc2)NC(=O)CSC[C@@H](C(=O)NCCOCCOCC(=O)NCCOCCOCC(=O)N[C@@H](CCCCN=[N+]=[N-])C(N)=O)NC(=O)[C@H](Cc2c[nH]c3ccccc23)NC(=O)[C@H](CCCNC(=N)N)NC(=O)[C@H](CCCCN)NC1=O` is reported as 33000 ± 8000 nM (Nectin-4, extracellular domain (Homo sapiens, UniProt Q96NY8); covalent labelling, in-gel fluorescence; 4 h, 37 °C).
For `CC(C)C[C@H](NC(=O)[C@H](Cc1ccc2ccccc2c1)NC(=O)CNC(=O)[C@H](NC(=O)[C@@H](N)Cc1ccc(O)cc1)[C@H](C)O)C(=O)N[C@@H](CO)C(N)=O`, the EC50 was 11.3 nM (Oprd1; GTPγS binding, agonist, radiometric; cell membranes).
`CC1(C)CCC(C)(C)c2c1cc(C(=O)Nc1cc(F)c(C(=O)O)c(F)c1)c(O)c2Cl` gave an EC50 of > 5000 nM (RARB (Homo sapiens, UniProt P10826); reporter gene, agonist, luciferase).
`Cc1cc(O)cc(C)c1CC(N)C(=O)NC1CCNc2c(F)cc(Cc3ccccc3)cc21` (stereo not shown) gave an EC50 of 97 nM (Oprd1; GTPγS binding, agonist, radiometric; cell membranes).
For `CC(C)C[C@@H]1NC(=O)[C@H](Cc2ccc(O)cc2)NC(=O)[C@H](CO)NC(=O)[C@H](C)NC(=O)[C@@H](NC(=O)[C@@H]2CCCN2C(=O)[C@H](CC(N)=O)NC(=O)[C@H](Cc2ccc(O)cc2)NC(=O)[C@H](C)NC(=O)[C@H](C)NC(=O)[C@H](C)NC(=O)[C@@H](N)CC(N)=O)CSC1=O`, the EC50 was > 2000 nM (Accessory gene regulator protein C).
The EC50 of `CC1(C(=O)O)CCCC2(C)C1CCC1(C)c3cocc3CCC12` (stereo not shown) is reported as 5600 nM (PGR (Homo sapiens, UniProt P06401); binding, fluorescence polarization competition; ligand-binding domain).
`Cn1ccc(-c2ccc(Cn3cc(C(=O)N[C@H]4CCCC[C@@H]4O)c4c(F)cc(F)cc43)cn2)n1` has an EC50 of 191 nM (Chrm1 (Rattus norvegicus, UniProt P08482); calcium signal, positive allosteric modulator).
`CC[C@H](C)[C@@H]1NC(=O)[C@H](Cc2ccccc2)NC(=O)[C@H](CCC(=O)O)NC(=O)[C@H](CCCNC(=N)N)NC(=O)[C@](C)(NC(=O)[C@H](CS)NC(=O)[C@H](CC(C)C)NC(=O)[C@H](CCCNC(=N)N)NC(=O)[C@@H](NC(=O)CNC(=O)[C@H](Cc2ccc(O)cc2)NC(=O)[C@@H]2CCCN2C(=O)[C@H](C)NC(=O)[C@H](C)NC(=O)[C@@H](N)CCCNC(=N)N)C(C)C)CCCC=CCCCCCC[C@@](C)(C(=O)N[C@H](C(=O)N[C@@H](Cc2ccccc2)C(=O)N[C@H](C(=O)N[C@@H](CS)C(=O)NCC(=O)NCC(=O)N[C@@H](CO)C(=O)N[C@@H](CCCNC(=N)N)C(=O)N[C@@H](Cc2c[nH]c3ccccc23)C(=O)O)[C@@H](C)O)[C@@H](C)CC)NC(=O)[C@H](C)NC(=O)[C@H](CCCNC(=N)N)NC1=O` has an EC50 of 16.7 nM (RXFP3; cAMP, agonist).
With `NCCCC[C@H](N)C(=O)N[C@@H](Cc1ccc(O)cc1)C(=O)N[C@@H](CC(N)=O)C(=O)N1CCC[C@H]1C(=O)N[C@H]1CSC(=O)[C@H](Cc2ccccc2)NC(=O)[C@H](Cc2ccc(O)cc2)NC(=O)[C@H](CC(N)=O)NC(=O)[C@H](CO)NC1=O` the EC50 was > 2000 nM (Accessory gene regulator protein C).
The EC50 of `CC[C@H](C)[C@H](NC(=O)[C@H](Cc1c[nH]cn1)NC(=O)[C@@H](NC(=O)[C@H](CCC(N)=O)NC(=O)[C@H](CCCNC(=N)N)NC(=O)[C@@H](NC(=O)[C@@H](N)CCC(=O)O)[C@@H](C)CC)[C@@H](C)O)C(=O)N[C@@H](Cc1ccccc1)C(=O)N[C@@H](Cc1ccccc1)C(=O)N[C@@H](Cc1ccccc1)C(=O)N[C@@H](Cc1ccccc1)C(=O)N[C@@H](Cc1ccccc1)C(=O)N[C@@H](Cc1ccccc1)C(=O)N[C@@H](CCCCN)C(=O)N[C@@H](CCCNC(=N)N)C(=O)N[C@@H](CCCNC(=N)N)C(=O)O` is reported as > 10000 nM (histidine kinase ComD (Streptococcus pneumoniae serotype 4, UniProt A0A0H2US84); reporter gene, agonist; Streptococcus pneumoniae, TIGR4 comX::lacZ; 30 min, pH 7.3, 37 °C).
The EC50 of `CC(N)CCc1ccc(Cl)cc1` (racemic) is reported as 33.5 nM (DRD3; GTPγS binding, agonist, radiometric; cell membranes).
The EC50 of `CC[C@H](C)[C@H](NC(=O)[C@H](Cc1ccccc1)NC(=O)[C@H](CCC(=O)O)NC(=O)[C@H](CCCCN)NC(=O)[C@H](C)NC(=O)[C@H](C)NC(=O)[C@H](CCC(N)=O)NC(=O)CNC(=O)[C@H](CCC(=O)O)NC(=O)[C@H](CC(C)C)NC(=O)[C@H](Cc1ccc(O)cc1)NC(=O)[C@H](CO)NC(=O)[C@H](CO)NC(=O)[C@@H](NC(=O)[C@H](CC(=O)O)NC(=O)[C@H](CO)NC(=O)[C@@H](NC(=O)[C@H](Cc1ccccc1)NC(=O)[C@@H](NC(=O)CNC(=O)[C@H](CCC(=O)O)NC(=O)C(C)(C)NC(=O)N(N)Cc1c[nH]cn1)[C@@H](C)O)[C@@H](C)O)C(C)C)C(=O)N[C@@H](C)C(=O)N[C@@H](Cc1c[nH]c2ccccc12)C(=O)N[C@@H](CC(C)C)C(=O)N[C@H](C(=O)N[C@@H](CCCNC(=N)N)C(=O)NCC(=O)N[C@@H](CCCNC(=N)N)C(=O)NCC(=O)O)C(C)C` is reported as 0.306 ± 0.044 nM (GLP1R (Homo sapiens, UniProt P43220); cAMP reporter gene, agonist, CRE-luciferase; BHK cells expressing receptor).

Some of these lines once more:
The EC50 of `CCCCc1cc(Cc2ccccc2)cc2c1NCCC2NC(=O)C(N)Cc1c(C)cc(O)cc1C` (stereo not shown) is reported as 250 nM (Oprd1; GTPγS binding, agonist, radiometric; cell membranes).
The EC50 of `C[C@@H]1NC(=O)[C@H](CC(N)=O)N2C[C@H](Cc3c[nH]c4ccccc34)NC(=O)[C@@H](CSCC2=O)NC(=O)[C@H](CCCNC(=N)N)NC(=O)[C@@H](Cc2ccccc2)NC(=O)[C@H](Cc2c[nH]cn2)NC(=O)[C@@H](NC(=O)[C@@H](N)Cc2ccc(O)cc2)CSSC[C@@H](C(=O)N[C@@H](Cc2ccc(O)cc2)C(N)=O)NC(=O)[C@H](Cc2ccccc2)NC1=O` is reported as 440 nM (Melanocortin receptor 4 (Mus musculus, UniProt P56450); reporter gene, agonist).
